Measured values of several laboratories.
Each numbered part is a random draw from the data of one study; scales do not carry over between parts. Substitutions count along the parent as printed.

Series 1 — target: CCNB1, cyclin fold, Cln2 fusion (human); technique: yeast growth competition, sequencing; sample: yeast; notes: weak parent motif; baseline: not given; reading: higher = stronger binding
Starting sequence: ANKRD17 docking peptide (human); PSVRRQLFVTVVK
For `Q6A`, “normalised enrichment score” read -0.0764.
For `F8L`, “normalised enrichment score” read 0.206.
`V12A` — result for “normalised enrichment score”: 0.809.
For `F8A`, “normalised enrichment score” read 1.23.
For `L7A`, “normalised enrichment score” read 1.52.
`P1A` — result for “normalised enrichment score”: 1.09.
`K13A`: “normalised enrichment score” 0.882.

Series 2 — target: CREBRF, bZIP domain (human); technique: DHFR protein complementation; sample: yeast; baseline: wild-type JUN-FOS pair; reading: higher = stronger binding
Notes: single substitutions, most at no-binding floor
Starting sequence: JUN, bZIP domain (human); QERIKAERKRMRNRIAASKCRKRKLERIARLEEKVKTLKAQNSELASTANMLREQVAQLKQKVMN; partner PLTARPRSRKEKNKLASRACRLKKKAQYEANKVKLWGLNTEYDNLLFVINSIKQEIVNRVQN
`E54N` gave a binding fitness of -1.45 natural log.
With `Q58R` the binding fitness was -1.38 natural log.
For `E54Y`, the binding fitness was -1.5 natural log.
`L59S` has a binding fitness of -1.42 natural log.
`A46N` has a binding fitness of -1.4 natural log.
With `A49Y` the binding fitness was -1.47 natural log.
The binding fitness of `M51L` is reported as -1.23 natural log.
For `I28Q`, the binding fitness was -1.33 natural log.
For `A46M`, the binding fitness was -1.44 natural log.
With `I28V` the binding fitness was -1.54 natural log.
The binding fitness of `E32T` is reported as -1.35 natural log.
`R53M` has a binding fitness of -1.56 natural log.
`Q55R` has a binding fitness of -1.57 natural log.
For `A29G`, the binding fitness was -1.48 natural log.
`L45Y` gave a binding fitness of -1.53 natural log.
`K39G` gave a binding fitness of -1.47 natural log.
`M51N` has a binding fitness of -1.5 natural log.
`L31V` has a binding fitness of -1.44 natural log.
`M51A` gave a binding fitness of -1.41 natural log.
`V56K` gave a binding fitness of -1.56 natural log.
For `A46L`, the binding fitness was -1.46 natural log.
For `L31W`, the binding fitness was -1.42 natural log.
`Q55T` gave a binding fitness of -1.5 natural log.

Series 3 — technique: protein binding microarray; molecule type: double-stranded DNA, one strand shown; sample: in vitro; concentration: not given; baseline: not given; reading: higher = stronger binding
Target: Histone acetyltransferase KAT6A, winged helix 1, GST fusion (KAT6A, Homo sapiens, UniProt Q92794, residues 1-85)
Notes: 8-mer, flanks averaged, mean of 2 arrays, mostly near background
Construct (chain): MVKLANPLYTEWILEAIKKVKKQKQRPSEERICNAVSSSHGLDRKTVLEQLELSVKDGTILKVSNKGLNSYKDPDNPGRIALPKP
For `ACAAATCA`, the E-score was -0.0953.
With `GACTTGTA` the E-score was -0.0347.
The E-score of `AGTGCTGA` is reported as -0.122.
`CAAGACTA` has an E-score of -0.167.
For `TGGATACA`, the E-score was -0.24.
`CGGCAGAG` has an E-score of 0.189.
The E-score of `AAAGCGGC` is reported as 0.385.
With `CATGACGC` the E-score was 0.256.
`CCCGGAGC` gave an E-score of 0.152.
With `TATGAAAA` the E-score was -0.048.
The E-score of `AAAATCCT` is reported as -0.166.
With `CAACATAA` the E-score was -0.0278.
`AAGAGGGA` has an E-score of -0.195.
`AGAAAGGG` gave an E-score of -0.219.
`AGTGCGAT` has an E-score of 0.0213.
The E-score of `CCTAGTTA` is reported as -0.076.
With `CCGGAAGC` the E-score was 0.166.
`ACGGTAAT` has an E-score of 0.154.
For `TATAAGAA`, the E-score was -0.0495.
`CACAGTAA` has an E-score of 0.00632.

Mixed results
The fold induction of `PhoQ, residues 284 288 289 292 302 303 SSTLLI` is reported as 2.22 (PhoP, residues 12 14 15 18 19 LHATL (Escherichia coli, UniProt P23836); Sort-seq, item: YFP reporter; E. coli; PhoQ-PhoP variant library, added: 10 µM Mg2+; baseline: high Mg2+ state, higher = stronger signaling).

Excerpt of the above (series 3):
With `CATGACGC` the E-score was 0.256.
`CCCGGAGC` gave an E-score of 0.152.
With `TATGAAAA` the E-score was -0.048.
The E-score of `AAAATCCT` is reported as -0.166.
With `CAACATAA` the E-score was -0.0278.
`AAGAGGGA` has an E-score of -0.195.
`AGAAAGGG` gave an E-score of -0.219.
`AGTGCGAT` has an E-score of 0.0213.
